Experimental data collected from several papers.
Protocols differ between the studies behind these lines. Numbers after ± are the reported error.

| SMILES | assay | test system | setting | how to read | quantity | result |
| --- | --- | --- | --- | --- | --- | --- |
| Cc1ccc(F)c2cc(C(=O)N[C@@H]3CCC[C@H](N4CC[C@H](N(C)S(C)(=O)=O)C4)C3)[nH]c12 |  | CD1 mouse | oral, 30 mg/kg |  | MRT(0-inf) | 3.4 h |
| CCN1[C@@H](C(=O)NC23CCC(C(=O)O)(CC2)CC3)[C@H](c2cccc(Cl)c2F)[C@]2(C(=O)Nc3cc(Cl)ccc32)C12CCCCC2 |  | advanced solid tumour patients | oral, dose not given |  | grade ≥3 febrile neutropenia | 9.5% |
| CC(C)C[C@H](NC(=O)[C@H](CCC1CCCCC1)NC(=O)[C@@H]1CCCN1C(=O)c1ccc(F)cc1)C(=O)NC(C)(C)C(=O)N[C@@H](CC(C)C)C(=O)N[C@@H](CC(C)C)C(=O)NC(C)(C)C(=O)NC(C)(C)C(=O)NCCC(=O)NCCN(C)CC(F)F | circular dichroism | phosphate buffer | pH 7.4, 20 °C |  | alpha-helix content | 11.4% |
| CC(C)(c1ccccc1)c1cc(-n2nc3ccccc3n2)c(O)c(C(C)(C)c2ccccc2)c1 |  | human aged 3-6 years | concentration not given, sunscreen, 95th percentile |  | daily dermal exposure dose | 1.97 ng/kg/day |
| C[C@@H]1OC(=O)NN=C1c1ccc(-c2ccc(F)cc2)c(C(F)(F)F)c1 | phase I trial, item: Pneumonitis worst grade 3 | human patients | 20 mg loading then 1 mg daily |  | patients with adverse event | 50% |
| C=CCNc1c(O)cc2c(O)c1C[C@@H](C)C[C@H](OC)[C@H](O)[C@@H](C)/C=C(\C)[C@H](OC(N)=O)[C@@H](OC)/C=C\C=C(/C)C(=O)N2 |  | unresectable or metastatic STS, GIST, other | intravenous, 400 mg/m^2 |  | patients with back pain TEAE | 22% |
| CC(C)[C@@H]1NC(=O)CNC(=O)[C@H](CC(N)=O)NC(=O)[C@H](CCCNC(=N)N)NC(=O)[C@H](Cc2ccc(O)cc2)NC(=O)[C@H](C(C)C)NC(=O)[C@@H](NC(=O)[C@@H](NC(=O)[C@H](CC(N)=O)NC(=O)[C@H](Cc2c[nH]c3ccccc23)NC(=O)[C@H](C)NC(=O)[C@H](Cc2ccccc2)NC(=O)CN)C(C)C)CSSC[C@@H](C(=O)N[C@@H](Cc2cnc[nH]2)C(=O)N[C@@H](CCCNC(=N)N)C(=O)N[C@@H](CCCNC(=N)N)C(=O)N[C@@H](C)C(=O)N[C@@H](CC(N)=O)C(N)=O)NC(=O)[C@H](C(C)C)NC(=O)[C@H](CCCNC(=N)N)NC1=O |  | ICR mice, blood | intraductal mammary, 10 mg/kg, day 5 |  | neutrophils | 18.2 ± 0.96% |
| COc1cccc2c1CCCC2CCCN1CCN(C2CCCCC2)CC1 (stereo not drawn) |  | CD-1 mouse, male, plasma | intraperitoneal, 30 mg/kg |  | AUC(0-inf) | 938 ng·h/mL |
| CN(C(=O)n1cnc(-c2ccc[n+]([O-])c2)c1)C1CCCCC1 |  | Wistar rat, cerebellum | oral, 10 mg/kg/day, 24 h, repeated 5 days |  | concentration | 17.5 ± 0.7 ng/g |
| Cc1cn([C@H]2O[C@@H](CO[P@@](=O)(N[C@@H](C)C(=O)OC(C)C)Oc3ccccc3)[C@H](O)[C@H]2F)c(=O)[nH]c1=O | item: bone pain | human | 25 mg |  | patients with TEAE | 20% |
| CCN(CCO)CCCC(C)Nc1ccnc2cc(Cl)ccc12 (stereo not drawn) |  | newly diagnosed glioblastoma patients | oral, 400 mg/dose, grade 1, added: radiotherapy plus temozolomide |  | bilirubin increased patients | 14% |
| COc1cc2c3c(n(CCCN4CCOCC4)c(=O)c2cc1OC)-c1cc2c(cc1C3=O)OCO2 |  | rat | intravenous slow bolus, once daily for 5 days |  | maximum tolerated dose | 24 mg/m²/d |
| CC(C)C[C@H](NC(=O)[C@H](CCCCN)NC(=O)OCC1c2ccccc2-c2ccccc21)C(=O)N[C@H](C(=O)N[C@@H](Cc1ccccc1)C(=O)N[C@@H](Cc1ccccc1)C(=O)N[C@@H](CCCCN)C(=O)NCC(=O)N[C@@H](Cc1ccccc1)C(=O)N[C@@H](C)C(=O)N[C@@H](Cc1c[nH]c2ccccc12)C(=O)N[C@@H](CC(N)=O)C(=O)N[C@H](C(=O)N[C@H]1CSSC[C@@H](C(=O)N[C@@H](Cc2c[nH]cn2)C(=O)N[C@@H](CCCNC(=N)N)C(=O)N[C@@H](CCCNC(=N)N)C(=O)N[C@@H](C)C(=O)N[C@@H](CC(N)=O)C(N)=O)NC(=O)[C@H](C(C)C)NC(=O)[C@H](CCCNC(=N)N)NC(=O)[C@H](C(C)C)NC(=O)CNC(=O)[C@H](CC(N)=O)NC(=O)[C@H](CCCNC(=N)N)NC(=O)[C@H](Cc2ccc(O)cc2)NC(=O)[C@H](C(C)C)NC1=O)C(C)C)C(C)C |  | ICR mice, blood | intraperitoneal, 10 mg/kg, day 5 |  | neutrophils | 20 ± 1% |
| O=C(Nc1ccccc1)C1CCN(C(=O)Oc2cccnc2)CC1 | Bond-Lader VAS | healthy women | 100 mg | baseline: pre-dose baseline, direction not given | change in calmness score | 17 |
| COc1ncccc1-c1cnn2ccc(N3CCN(C(=O)OC(C)C)CC3)nc12 |  | mouse, SNL model, plasma | oral, 60 mg/kg, 30 min |  | drug concentration | 15 µM |
| CCC[C@@](N)(CO)CCc1ccc(OCCCCCC(C)C)cc1 |  | hound dogs, male | intravenous, 0.25 mg/kg, median |  | Tmax | 0.25 h |
| CC(C)=CC1C(C(=O)OC(C#N)c2cccc(Oc3ccccc3)c2)C1(C)C (stereo not drawn) | item: CYP2C9 | human, age 6 months |  |  | enzyme contribution to clearance | 7.65% |
| C[C@]1(CO)Cc2ncn(-c3ccc(C#N)c(Cl)c3)c2C(=O)O1 |  | human | 10 mg single dose |  | subjects with any TEAE | 28.6% |

| SMILES | assay | test system | setting | how to read | quantity | result |
| --- | --- | --- | --- | --- | --- | --- |
| COc1cc(C(=O)NC2CCN(C)CC2)c(F)cc1Nc1ncc(C(F)(F)F)c(Oc2cccc3c2C(=O)N(C)C3)n1 |  | human patients, urine | oral, 100 mg single dose, geometric mean | baseline: dose | fraction excreted in urine (0-48 h) | 8.45% |
| COc1cc2c(Oc3ccc4[nH]c(C)cc4c3F)ccnc2cc1OCC1(N)CC1 |  | paediatric recurrent refractory sarcoma | 12 mg |  | grade 3 Cholesterol elevation | 0% |
| COc1ccc(-c2c(-c3ccc(C#N)c(F)c3)nc(N3CCC(N)CC3)n(C)c2=O)cc1F | item: Thrombocytopenia | human patients | oral, dose not given, any grade, dose escalation, NG |  | treatment-related adverse event incidence | 40% |
| O=[N+]([O-])c1ccc2c(c1)S(=O)(=O)C=C2 | flow cytometry | male C57BL/6 mice, spleen | i.p., 10 mg/kg, 8 days | baseline: CD45+ cells | Gr-1+ CD11b+ cells | 0.88% |
| CN1CC[C@@H](c2c(O)cc(O)c3c(=O)cc(-c4ccc(C(F)(F)F)cc4Cl)oc23)[C@@H]1CO | item: Anorexia | B-cell malignancies | oral, 150 mg, intermittent dosing |  | patients with adverse event | 33.3% |
| O=c1ccc2ncc(=O)n3c2n1C[C@H]3CN1CCC(NCc2cc3c(cn2)OCCC3)CC1 |  | healthy human volunteers, plasma | oral, 1500 mg single dose, geometric mean, alone |  | half-life | 10.9 h |
| O=C(O)CCCOc1ccc(F)cc1-c1cc(-c2ccccc2C(F)(F)F)n(-c2ccccc2)n1 |  | Crl:CD(SD) rat, female | intravenous, 25 µg/kg, 1 days post-dose |  | albumin fraction of serum protein | 52.4 ± 1.3% |
| C[C@@H]1NC(=O)[C@H](CCCCNC(=O)CO/N=C/C(=O)NCCCC[C@@H]2NC(=O)[C@@H](Cc3ccccc3)NC(=O)[C@H](CC(=O)O)NC(=O)CNC(=O)[C@H](CCCNC(=N)N)NC2=O)NC(=O)CNC(=O)[C@@H]2CCCN2C(=O)[C@H](CCCCNC(=O)CO/N=C/C(=O)NCCCC[C@@H]2NC(=O)[C@@H](Cc3ccccc3)NC(=O)[C@H](CC(=O)O)NC(=O)CNC(=O)[C@H](CCCNC(=N)N)NC2=O)NC(=O)[C@H](CCCCNC(=O)[C@H](CCCCN)NC(=O)[C@H](Cc2ccccc2)NC(=O)CNC(=O)CN2CCCNCCNCCCNCC2)NC(=O)[C@H](CCCCNC(=O)CO/N=C/C(=O)NCCCC[C@@H]2NC(=O)[C@@H](Cc3ccccc3)NC(=O)[C@H](CC(=O)O)NC(=O)CNC(=O)[C@H](CCCNC(=N)N)NC2=O)NC(=O)CNC(=O)[C@@H]2CCCN2C(=O)[C@H](CCCCNC(=O)CO/N=C/C(=O)NCCCC[C@@H]2NC(=O)[C@@H](Cc3ccccc3)NC(=O)[C@H](CC(=O)O)NC(=O)CNC(=O)[C@H](CCCNC(=N)N)NC2=O)NC1=O [copper-64 labelled] |  | normal mice, blood | intravenous, 0.74 MBq, 3 h post-injection |  | tissue uptake | 0.12 ± 0.01 %ID/g |
| O=C([O-])CN1CCN(CC(=O)[O-])CCN(CC(=O)NCC2CCC(C(=O)N[C@@H](Cc3ccc4ccccc4c3)C(=O)NCCCC[C@H](NC(=O)N[C@@H](CCC(=O)O)C(=O)O)C(=O)O)CC2)CCN(CC(=O)[O-])CC1.[177Lu+3] (stereo partly drawn) |  | BALB/c mouse, blood | intravenous |  | distribution half-life | 3.25 min |
| O=C(c1ccc(F)c(F)c1Nc1ccc(I)cc1F)N1CC(O)([C@@H]2CCCCN2)C1 |  | patients aged 2 to 6 years | oral, dose not given |  | adverse events of special interest | 50% |
| CC(C)Nc1ccnc(Nc2cccc(-c3cccnc3)c2)n1 | item: sodium | mouse, blood | intraperitoneal, 10 mg/kg |  | blood chemistry | 159 mmol/L |
| CC(=O)c1c(C)c2cnc(Nc3ccc(C4CCN(CCS(C)(=O)=O)CC4)cn3)nc2n(C2CCCC2)c1=O |  | human, plasma | oral, 75 mg twice daily, day 21, multiple dose, added: letrozole |  | half-life | 8.13 h |
| NC(=O)[C@H]1CCN(c2ncnc(N)c2F)C[C@@H]1N1CCC[C@@H](Nc2cc(Cl)cc(C(F)(F)F)c2)C1=O |  | B-cell malignancy patients | oral, 410 mg twice daily, dose |  | grade ≥3 leukopenia | 0% |
| O=S(=O)(Nc1ccccc1)c1ccc(NC(=S)Nc2ccccc2)cc1 |  | mouse, female, blood | oral, 5 mg/kg daily, 14 days |  | mean corpuscular volume | 49 fL |
| N#Cc1cc(NC(=O)[C@H]2c3ccccc3C(=O)N(CC(F)(F)F)[C@@H]2c2cccnc2)ccc1F |  | Beagle dog | no respiratory or methemoglobin change |  | dose | 100 mg/kg |
| C[C@@H](NC(=O)N1C(=O)[C@H](Cc2ccnc(N)c2)[C@H]1C(=O)O)C1CCCCC1 |  | healthy Chinese adult volunteers | continuous intravenous infusion, dose not given, 5.0 days, all doses pooled |  | drug-related abnormal liver function | 10% |
| CO[C@H]1C[C@@H]2CC[C@@H](C)[C@@](O)(O2)C(=O)C(=O)N2CCCC[C@H]2C(=O)O[C@H]([C@H](C)C[C@@H]2CC[C@@H](OC(=O)NCCOCCOCCOCCOCCOCCOCCOCCOCCC(=O)N3CCc4cc(Cn5nc(-c6ccc7oc(N)nc7c6)c6c(N)ncnc65)ccc4C3)[C@H](OC)C2)C[C@@H](O)[C@H](C)/C=C(\C)[C@@H](O)[C@@H](OC)C(=O)[C@H](C)C[C@H](C)/C=C/C=C/C=C/1C |  | patients with advanced solid tumours | intravenous, dose not given, any grade |  | incidence of mucositis TRAE | 49% |
| Cc1cccc(Cn2nc(C3CC3)c3c(NC(=O)c4cnc5cc(OCCN6CCN(C)CC6)ccn45)cccc32)n1 | CTCAE v4.03, item: all adverse events | PD-1/PD-L1 inhibitor-refractory patients | oral, dose not given, added: pembrolizumab IV every 3 weeks |  | all-cause adverse events | 100% |
